# Published values collected from several papers.
# Protocols differ between the studies behind these lines. ± gives the spread as reported. Where no end group is shown, it is not given here. No end group written: not given here.
# B1: TIMP1 mature (Homo sapiens, UniProt P01033); sequence looked up; chain CTCVPPHPQTAFCNSDLVIRAKFVGTPEVNQTTLYQRYEIKMTKMYKGFQALGDAADIRFVYTPAMESVCGYFHRSHNRSEEFLIAGKLQDGLLHITTCSFVAPWNSLSLAQRRGFTKTYTVGCEECTVFPCLSIPCKLQSGTHCLWTDQLLQGSEKGFQSRHLACLPREPGLCTWQSLRSQIA
# B2: RGS8 GST fusion (UniProt P49804); sequence looked up; chain MAALLMPRRNKGMRTRLGCLSHKSDSCSDFTAILPDKPNRALKRLSTEEATRWADSFDVLLSHKYGVAAFRAFLKTEFSEENLEFWLACEEFKKTRSTAKLVTKAHRIFEEFVDVQAPREVNIDFQTREATRKNMQEPSLTCFDQAQGKVHSLMEKDSYPRFLRSKMYLDLLSQSQRRLS
# B3: FDX1 61-184 (Homo sapiens, UniProt P10109); sequence looked up; chain SSSEDKITVHFINRDGETLTTKGKVGDSLLDVVVENNLDIDGFGACEGTLACSTCHLIFEDHIYEKLDAITDEENDMLDLAYGLTDRSRLGCQICLTKSMDNMTVRVPETVADARQSIDVGKTS
# B4: PDPK1 (Homo sapiens, UniProt O15530); chain MARTTSQLYDAVPIQSSVVLCSCPSPSMVRTQTESSTPPGIPGGSRQGPAMDGTAAEPRPGAGSLQHAQPPPQPRKKRPEDFKFGKILGEGSFSTVVLARELATSREYAIKILEKRHIIKENKVPYVTRERDVMSRLDHPFFVKLYFTFQDDEKLYFGLSYAKNGELLKYIRKIGSFDETCTRFYTAEIVSALEYLHGKGIIHRDLKPENILLNEDMHIQITDFGTAKVLSPESKQARANSFVGTAQYVSPELLTEKSACKSSDLWALGCIIYQLVAGLPPFRAGNEYLIFQKIIKLEYDFPEKFFPKARDLVEKLLVLDATKRLGCEEMEGYGPLKAHPFFESVTWENLHQQTPPKLTAYLPAMSEDDEDCYGNYDNLLSQFGCMQVSSSSSSHSLSASDTGLPQRSGSNIEQYIHDLDSNSFELDLQFSEDEKRLLLEKQAGGNPWHQFVENNLILKMGPVDKRKGLFARRRQLLLTEGPHLYYVDPVNKVLKGEIPWSQELRPEAKNFKTFFVHTPNRTYYLMDPSGNAHKWCRKIQEVWRQRYQSHPDAAVQ
# B5: MIF4GD R76A (Homo sapiens, UniProt A9UHW6); sequence looked up; chain MGEPSREEYKIQSFDAETQQLLKTALKDPGAVDLEKVANVIVDHSLQDCVFSKEAGRMCYAIIQAESKQAGQSVFARGLLNRLQQEYQAREQLRARSLQGWVCYVTFICNIFDYLRVNNMPMMALVNPVYDCLFRLAQPDSLSKEEEVDCLVLQLHRVGEQLEKMNGQRMDELFVLIRDGFLLPTGLSSLAQLLLLEIIEFRAAGWKTTPAAHKYYYSEVSD
# B6: merA 1-69 (Serratia marcescens, UniProt P08662); sequence looked up; chain MTHLKITGMTCDSCAAHVKEALEKVPGVQSAIVSYAKGAAQLALDPGTAPDALTAAVAGLGYKAMLADA
# B7: UGT1A9 (Homo sapiens, UniProt O60656); chain GKLLVVPMDGSHWFTMRSVVEKLILRGHEVVVVMPEVSWQLGRSLNCTVKTYSTSYTLEDLDREFKAFAHAQWKAQVRSIYSLLMGSYNDIFDLFFSNCRSLFKDKKLVEYLKESSFDAVFLDPFDNCGLIVAKYFSLPSVVFARGILCHYLEEGAQCPAPLSYVPRILLGFSDAMTFKERVRNHIMHLEEHLLCHRFFKNALEIASEILQTPVTEYDLYSHTSIWLLRTDFVLDYPKPVMPNMIFIGGINCHQGKPLPMEFEAYINASGEHGIVVFSLGSMVSEIPEKKAMAIADALGKIPQTVLWRYTGTRPSNLANNTILVKWLPQNDLLGHPMTRAFITHAGSHGVYESICNGVPMVMMPLFGDQMDNAKRMETKGAGVTLNVLEMTSEDLENALKAVINDKSYKENIMRLSSLHKDRPVEPLDLAVFWVEFVMRHKGAPHLRPAAHDLTWYQYHSLDVIGFLLAVVLTVAFITFKCCAYGYRKCLGKKGRVKKAHKSKTH
Substance,target or system,assay,test system,setting,measurement,result
SYRKAIDAATQTEE (FAM83D 414-425 P425E (Homo sapiens)),"ctp 1-89 (Drosophila melanogaster, UniProt Q24117)",ITC,peptide,"pH 7.5, 25 °C, NaCl 50 mM",Kd,0.4 ± 0.1 µM
B1 (TIMP1 mature),"MMP9 proMMP-9, trimer E402A (Homo sapiens, UniProt P14780)",SPR,,pH 7.4,Kd,0.00012 µM
GP6 fragment (Homo sapiens),"collagen III Toolkit peptide III-30, hydroxyproline, C-terminal amide (Homo sapiens)",ELISA,,,Kd,0.0032 ± 0.0003 µM
CARLSLSWRGLTLCPSK (68Ga-DOTA-labelled),mouse VAP-1,ex vivo biodistribution,"peptide, wild-type mouse, B16 melanoma xenograft, small intestine","60 min, added: 500-fold excess unlabelled DOTA-peptide",uptake,0.1 ± 0.03 SUV
"KFKESVFENAYVIYSSMLYR (FGF14 149-168 Y158A (Homo sapiens, UniProt Q92915-2); sequence looked up)","FGF14 64-252 (Homo sapiens, UniProt Q92915-2)",SPR,peptide,25 °C,Kd,7.02 µM
B2 (RGS8 GST fusion),"Gnao1, AlexaFluor 532 label (Rattus norvegicus, UniProt P59215)",flow cytometry,,added: GDP-AlF4-,Kd,0.023 µM
LIYWAST,,,"peptide, human polyclonal IgM RF SOR","concentration not given, 5 µg/mL mAb II-481 coated, added: RF at 50% max binding concentration",inhibition,14%
"PGYPNGLLSGDEDFSSIADMDFSALLSQISS (RELA 521-551 L523Y (Homo sapiens, UniProt Q04206); sequence looked up)","TFB1 1-115 (Saccharomyces cerevisiae, UniProt P32776)",ITC,peptide,"pH 7.4, 25 °C",Kd,15 ± 3 µM
EDGGSFWYGAMKALAG (designed peptide),"CIB1 (Homo sapiens, UniProt Q99828)",ITC,peptide,"25 °C, added: CaCl2 0.1 mM",Kd,3.69 µM
SQSVLYS,,,"peptide, human polyclonal IgM RF ABR","concentration not given, 5 µg/mL mAb II-481 coated, added: RF at 50% max binding concentration",inhibition,6%
B3 (FDX1 61-184),"LIAS 28-372 (Homo sapiens, UniProt O43766)",MST,,added: FDX1 375-0.009 µM,Kd,6 ± 2 µM
"SKTRGKAKVTGRWK (TNNT2 275-288 (Homo sapiens, UniProt P45379-6); sequence looked up)","TPM1 (Oryctolagus cuniculus, UniProt P58772)",SPR,peptide,"pH 7.0, KCl 0.1 M",Kd,6.53 µM
B4 (PDPK1),TP53 (UniProt P04637),MST,,,Kd,0.006 µM
"DGGTAENLSRRLKVTGDLFDIMSGQT (BECN1 105-130 M109A (Homo sapiens, UniProt Q14457); sequence looked up)","BCL2 1-218 (Homo sapiens, UniProt P10415)",ITC,peptide,"pH 7.5, 25 °C, NaCl 150 mM, independent binding model",Kd,14.5 ± 2.3 µM
RKQLATKAARK(Ac)S (histone H3 18-29 (UniProt P68431); acetylated K27; sequence looked up),"MLLT1 1-148 (Homo sapiens, UniProt Q03111)",ITC,peptide,"pH 7.5, 15 °C, NaCl 500 mM",Kd,30.5 µM
B5 (MIF4GD R76A),"SLBP, phosphorylated, multiple sites (Homo sapiens, UniProt Q14493)",SPR,,"pH 7.4, 25 °C, NaCl 150 mM",Kd,3.02 ± 2.2 µM
B6 (merA 1-69),"MerB 1-212, Hg(II) bound Cys96/Cys159 (Serratia marcescens, UniProt P77072)",stopped-flow fluorescence,,,Kd,195 µM
ARTK(Me3)QTARKSTG (histone H3 2-13 (UniProt P68431); K4me3; Me3 = trimethyl-lysine; sequence looked up),"DIDO1 266-325 (Homo sapiens, UniProt Q9BTC0)",intrinsic tryptophan fluorescence titration,peptide,"pH 6.0, 25 °C",Kd,7.3 µM
B7 (UGT1A9),CN1CC[C@H](c2c(O)cc(O)c3c(=O)cc(-c4ccccc4Cl)oc23)[C@H](O)C1,steady-state kinetics,,"pH 7.4, 37 °C",Vmax/Km,5.8 µL/min/mg

# Some of these lines once more:
Substance,target or system,assay,test system,setting,measurement,result
"SKTRGKAKVTGRWK (TNNT2 275-288 (Homo sapiens, UniProt P45379-6); sequence looked up)","TPM1 (Oryctolagus cuniculus, UniProt P58772)",SPR,peptide,"pH 7.0, KCl 0.1 M",Kd,6.53 µM
B4 (PDPK1),TP53 (UniProt P04637),MST,,,Kd,0.006 µM
